Results gathered from unrelated publications.
A part holds a random share of what one study measured. Positions count from the first letter of the parent shown.

Block 1 — method: RNA Bind-n-Seq; molecule type: RNA; matrix: in vitro; tested at: 200 nM; notes: whole 134-nt RNA, ends assumed; with: 150 mM LiCl; reference: input library; direction: higher = stronger binding; each molecule: 7-deaza-guanosine replaces G
Target: Ras GTPase-activating protein-binding protein 1, full length (G3BP1, Homo sapiens, UniProt Q13283)
Chain of UniProt Q13283 (whole entry, looked up): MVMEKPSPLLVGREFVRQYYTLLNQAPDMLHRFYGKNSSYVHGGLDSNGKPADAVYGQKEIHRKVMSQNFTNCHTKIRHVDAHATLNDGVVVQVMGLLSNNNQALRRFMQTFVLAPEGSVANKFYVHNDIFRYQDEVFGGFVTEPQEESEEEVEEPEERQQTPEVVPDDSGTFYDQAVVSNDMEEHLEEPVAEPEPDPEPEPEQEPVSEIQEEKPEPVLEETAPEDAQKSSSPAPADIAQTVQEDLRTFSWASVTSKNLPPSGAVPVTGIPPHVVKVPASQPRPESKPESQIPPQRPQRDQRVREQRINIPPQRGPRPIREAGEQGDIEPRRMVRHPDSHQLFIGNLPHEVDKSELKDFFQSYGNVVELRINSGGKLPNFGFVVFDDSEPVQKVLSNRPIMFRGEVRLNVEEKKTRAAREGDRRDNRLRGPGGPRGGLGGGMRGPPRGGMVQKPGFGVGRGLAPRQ
Shared flanks, not repeated: GGGAGUUCUACAGUCCGACGAUC … UGGAAUUCUCGGGUGUCAAGG
Oligonucleotide | log2 enrichment
ACCAUGCUGGUGGGCAUCUUUGGGAAGUGGGGCAAGGGGGGGAUAGGGAGGGGGGUAACACUUUGGGAACAGGUGGUCCCAGGUCGUUUC | 0.426
AGUCCUGUGCUACACAUCGUAUGUACCGAAUCGGGGUUUGGGGAAAAAGGGGUGGGGAAAGUAUUAUGUUACGCCGUUCGGAUCUGCACU | -0.431
CACAGACAACACGCAAACACACAGACACAGAGGGAAGGGGUUGGGAUGGGGACAGGGUGCACAGCAGGGCGGGGUAGGACCCCAGCCCCU | 0.357
UGCCUUGCAGAUACGUGGCUUUCCUGAAGCUGUUCCUGGAGACGGCGGAGAAGCACUUCAUGGUGGGCCACCGUGUCCACUACUAUGUCU | 0.0101
CACAGACAACACGCACCCACACAGACACAGAGGGAAGGGGUUGGGAUGGGGACAGGGUGCACAGCAGGGCGGGGUAUGACCCCAGCCCCU | 1.08
CCUCAAGUCCUGUGCUACACAUCGUAUGUACCGAAUCGGGGUGGGUGGUGGGAAAGUAUUAUGUUACGCCGUUCGGAUCUGCACUUCCAG | -0.104
UGGCCCUGGUGGCAUGCGGGGAGGAAGAGGUGGCCUCAUGGAUCGUGGUGGUCCCGGUGGAAUGUUCAGAAGUGGCCGUGGUGGAGACAG | -0.0939

Block 2 — method: protein binding microarray; molecule type: double-stranded DNA, one strand shown; matrix: in vitro; tested at: not given; reference: not given; direction: higher = stronger binding
Target: Histone acetyltransferase KAT6A, winged helix 2, GST fusion (KAT6A, Homo sapiens, UniProt Q92794, residues 85-181)
Notes: 8-mer, flanks averaged, mean of 2 arrays, mostly near background
Residues (chain): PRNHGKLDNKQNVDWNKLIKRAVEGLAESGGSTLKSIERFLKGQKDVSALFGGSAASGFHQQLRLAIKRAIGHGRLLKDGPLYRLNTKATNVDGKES
Oligonucleotide | E-score
CCCTTACG | -0.153
CACTTGGA | 0.0427
AGGGAAGC | -0.175
CTAGTAGA | 0.0319
ATGAAGCA | -0.0468
ATATGCGA | -0.12
GCGTAAGA | 0.0407
AATAACAT | -0.044
AGTAATCA | -0.0944
GCCGACTA | 0.00484
GGCATGTA | -0.177
AGCTATCA | 0.0372
CCGAACTA | -0.0508
ATTACACC | -0.0616
AAGTATTG | -0.15
AGGGCCCC | -0.082
CACCCCGC | 0.194
ATGACCTC | -0.144
AAGCTTAA | 0.073
AAAAGGAA | 0.148
CCGGCGCA | 0.172
AATTGGGA | 0.0152
AAGAACCT | 0.0151
ATCGTGGA | -0.029
CGAAGAAG | 0.0614

Block 3 — target: CCND3, cyclin fold, Cln2 fusion (human); method: yeast growth competition, sequencing; matrix: yeast; notes: weak parent motif; reference: not given; direction: higher = stronger binding
Parent: RBL1 docking peptide (human); GSAKRRLFGEDPP; partner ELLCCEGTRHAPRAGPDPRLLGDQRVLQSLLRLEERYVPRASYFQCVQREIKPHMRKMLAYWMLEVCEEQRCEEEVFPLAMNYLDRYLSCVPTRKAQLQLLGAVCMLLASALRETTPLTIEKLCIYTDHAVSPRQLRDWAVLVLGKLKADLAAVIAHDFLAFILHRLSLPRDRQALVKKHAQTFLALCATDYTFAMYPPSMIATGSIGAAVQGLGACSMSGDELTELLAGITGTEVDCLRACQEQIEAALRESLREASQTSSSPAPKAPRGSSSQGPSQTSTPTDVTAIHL
Change | normalised enrichment score
GSAKRMLFGEDPP [R6M] | 0.141
GAAKRRLFGEDPP [S2A] | 0.184
GSAKRRLFPEDPP [G9P] | 0.166
GSAKRRLPGEDPP [F8P] | 0.188
GSKKRRLFGEDPP [A3K] | 0.25
GSAKRRLFGEDPK [P13K] | 0.0473
GSAKRRLFGENPP [D11N] | 0.198
GSAKRRLYGEDPP [F8Y] | 0.0882
GSAKRRLFGYDPP [E10Y] | 0.0611
GSAKRPLFGEDPP [R6P] | 0.261
GSAKRRLFYEDPP [G9Y] | 0.0762
GSAKRRLFGEDPD [P13D] | 0.173
GSAKRRLFGEDWP [P12W] | 0.119
GSAKRRLFGEDFP [P12F] | 0.115
GSAKRRLFGCDPP [E10C] | 0.14
GSAKWRLFGEDPP [R5W] | 0.0501
GPAKRRLFGEDPP [S2P] | 0.158
GSAARRLFGEDPP [K4A] | 0.193
GSAKRRLRGEDPP [F8R] | 0.0985

Block 4 — method: protein-binding microarray; molecule type: double-stranded DNA, one strand shown; matrix: in vitro; tested at: 250 nM; notes: 60-bp whole probe; with: salmon DNA 0.4 mg/ml; reference: random background probes; direction: higher = stronger binding; shared flanks, not repeated: GCCTAGCAC … GTCTTGATTCGCTTGACGCTGCTG
Target: Interferon regulatory factor 5, full length, phosphomimetic (IRF5, Homo sapiens, UniProt Q13568-2, residues 1-514, K96S/S451D/S453D/S456D/S462D)
Oligonucleotide | log fluorescence
TGTCTTTTCACTTTCTTTAAGTGCTAG | 4.31 z-score
TTATGACTGGACTATCGGTTAGTGCTA | 5.97 z-score
GACGAACTGGGGACTGGAGACGTGCTA | -0.688 z-score
GACGGACTGGGTCTCAGGACGTGCTAG | -0.623 z-score
TTAGGACTGGGCCTGGGTTAGTGCTAG | -0.354 z-score
TTAGGTATCGGGTTTCGGGTAGTGCTA | 6.34 z-score
CTTTACATGAGTTTAGAGCCGTGCTAG | 0.0127 z-score
GGAAATTCCAAGTTCATGGGGTGCTAG | 0.0675 z-score
GACGGTATCCTTCTCCTGATGTGCTAG | 0.283 z-score
GAGGATTTCAGACTGGAGACGTGCTAG | -0.26 z-score
GACGCTTTCGGTTTCGGGACGTGCTAG | 11 z-score
TTAGGCTTCGGGTATCGGTTAGTGCTA | 3.49 z-score
TTAGGACTGGTGACTGGGTTAGTGCTA | -0.12 z-score
TTATGTTTCGGGTTTCGGTTAGTGCTA | 10 z-score
GTGAGAAATAAGTTTCTTTTGTGCTAG | 1.52 z-score
GACGAACTGGGGTTTCCAGACGTGCTA | -0.287 z-score
GACGAACTGAGTTTTGAGACGTGCTAG | -0.00156 z-score
GTTTTTTAAAGTTTCAGTGAGTGCTAG | 1.96 z-score
GACGGTATCCGTTTCGGGACGTGCTAG | 2.83 z-score

Single results of other studies
Substance | target | test | system | setting | scale | quantity | value
PhoQ, residues 284 288 289 292 302 303 SCCLKL | PhoP, residues 12 14 15 18 19 LHSVQ (Escherichia coli, UniProt P23836) | Sort-seq, item: YFP reporter | E. coli | PhoQ-PhoP variant library, with: 10 µM Mg2+ | reference: high Mg2+ state, higher = stronger signaling | fold induction | 2.6

A few entries again (block 4):
Oligonucleotide | log fluorescence
GACGGTATCCTTCTCCTGATGTGCTAG | 0.283 z-score
GAGGATTTCAGACTGGAGACGTGCTAG | -0.26 z-score
TTATGTTTCGGGTTTCGGTTAGTGCTA | 10 z-score
GTGAGAAATAAGTTTCTTTTGTGCTAG | 1.52 z-score
TGTCTTTTCACTTTCTTTAAGTGCTAG | 4.31 z-score
TTAGGTATCGGGTTTCGGGTAGTGCTA | 6.34 z-score
TTAGGCTTCGGGTATCGGTTAGTGCTA | 3.49 z-score
GACGCTTTCGGTTTCGGGACGTGCTAG | 11 z-score
CTTTACATGAGTTTAGAGCCGTGCTAG | 0.0127 z-score
GACGAACTGGGGACTGGAGACGTGCTA | -0.688 z-score
GGAAATTCCAAGTTCATGGGGTGCTAG | 0.0675 z-score
TTAGGACTGGTGACTGGGTTAGTGCTA | -0.12 z-score
